Assay results collected from several papers.
Protocols differ between the studies behind these lines. ± gives the spread as reported.
Chain of UniProt P32297 (whole entry, looked up): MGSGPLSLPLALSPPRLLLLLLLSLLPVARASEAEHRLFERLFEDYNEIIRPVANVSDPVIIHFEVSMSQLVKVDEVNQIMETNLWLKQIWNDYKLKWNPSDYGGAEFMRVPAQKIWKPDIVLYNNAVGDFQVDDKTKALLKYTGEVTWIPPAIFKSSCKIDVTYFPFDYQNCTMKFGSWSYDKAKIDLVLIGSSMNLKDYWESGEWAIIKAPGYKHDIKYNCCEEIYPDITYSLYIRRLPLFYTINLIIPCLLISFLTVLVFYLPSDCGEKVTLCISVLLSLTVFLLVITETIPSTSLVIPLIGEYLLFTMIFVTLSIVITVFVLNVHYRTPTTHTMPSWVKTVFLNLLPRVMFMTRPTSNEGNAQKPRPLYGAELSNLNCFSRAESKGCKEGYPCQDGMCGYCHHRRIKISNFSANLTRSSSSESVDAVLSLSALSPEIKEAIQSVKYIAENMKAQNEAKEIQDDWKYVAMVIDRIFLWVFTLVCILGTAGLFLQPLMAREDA
Chain of UniProt P0A951 (whole entry, looked up): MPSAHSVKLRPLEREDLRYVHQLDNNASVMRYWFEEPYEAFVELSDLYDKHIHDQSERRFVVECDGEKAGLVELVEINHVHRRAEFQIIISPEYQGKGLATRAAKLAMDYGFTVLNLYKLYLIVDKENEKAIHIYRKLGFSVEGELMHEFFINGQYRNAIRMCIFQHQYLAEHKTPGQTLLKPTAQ
Chain of UniProt P20272 (whole entry, looked up): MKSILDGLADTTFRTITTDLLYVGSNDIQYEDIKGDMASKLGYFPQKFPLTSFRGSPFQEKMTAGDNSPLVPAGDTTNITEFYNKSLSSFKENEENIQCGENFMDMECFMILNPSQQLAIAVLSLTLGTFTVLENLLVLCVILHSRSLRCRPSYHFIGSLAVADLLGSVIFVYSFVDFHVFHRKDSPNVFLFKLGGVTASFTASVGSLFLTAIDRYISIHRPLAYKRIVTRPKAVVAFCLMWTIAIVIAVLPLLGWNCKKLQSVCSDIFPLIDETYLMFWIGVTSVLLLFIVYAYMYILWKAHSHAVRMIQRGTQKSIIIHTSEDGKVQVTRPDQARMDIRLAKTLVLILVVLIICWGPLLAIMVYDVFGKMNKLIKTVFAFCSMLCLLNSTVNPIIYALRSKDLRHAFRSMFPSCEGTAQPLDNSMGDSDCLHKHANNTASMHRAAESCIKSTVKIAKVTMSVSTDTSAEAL
Chain of UniProt P30926 (whole entry, looked up): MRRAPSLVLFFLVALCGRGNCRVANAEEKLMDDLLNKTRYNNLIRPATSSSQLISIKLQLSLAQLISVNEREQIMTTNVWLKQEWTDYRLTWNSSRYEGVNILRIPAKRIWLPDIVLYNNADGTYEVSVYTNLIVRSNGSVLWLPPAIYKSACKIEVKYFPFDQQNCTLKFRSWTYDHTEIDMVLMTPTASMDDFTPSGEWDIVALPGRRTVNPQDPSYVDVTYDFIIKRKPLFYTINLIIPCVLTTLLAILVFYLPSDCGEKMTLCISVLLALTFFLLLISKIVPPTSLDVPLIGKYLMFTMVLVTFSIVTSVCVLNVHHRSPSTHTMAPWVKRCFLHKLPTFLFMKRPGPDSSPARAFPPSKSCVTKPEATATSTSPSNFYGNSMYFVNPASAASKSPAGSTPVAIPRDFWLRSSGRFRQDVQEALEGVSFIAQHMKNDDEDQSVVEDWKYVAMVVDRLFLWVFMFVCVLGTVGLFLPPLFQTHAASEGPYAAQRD

CCCCCCCCCCCCCC(=O)O[C@@H]1[C@@H](C)[C@@]2(O)[C@@H](C=C(CO)C[C@]3(O)C(=O)C(C)=C[C@@H]23)[C@@H]2C(C)(C)[C@]12OC(C)=O has a phosphorylation level of 393 ± 76% (rat pancreatic acini; refers to: Yes kinase pY416; 1 µM, 2.5 min, calcium-free medium; reference: untreated).
The fold change of Oc1ccc(-c2ccc(Cl)cc2)cc1 is reported as 5 fold (microarray, refers to: Rock mRNA; F344 Big Blue rats, female, liver; dose not given; reference: corn oil).
O=C(CN1CCN(S(=O)(=O)c2ccccc2F)CC1)Nc1ccccc1F gave a Hill coefficient of -0.6 (Neuronal acetylcholine receptor; alpha3/beta4 (Homo sapiens, UniProt P30926+P32297); inhibitor, calcium accumulation; HEK tsA201 cells).
`NSRQTDR` gave an inhibition of 0% (peptide, human polyclonal IgM RF AGER; concentration not given, 5 µg/mL mAb II-481 coated, together with: RF at 50% max binding concentration).
The tissue uptake of CN[C@@](C)(C[18F])C(=O)O is reported as 1.1 ± 0.1 %ID/g (SCID mouse MDA-MB-468 xenograft, muscle; 15 min, post injection).
COC(=O)C1=CCCN(C)C1 gave a Vmax of 783 nmol/min/mg protein (carboxylate metabolite formation, substrate; human liver microsomes; 15 min, 0.2 °C).
Under “OxPhos flux increase”, Nc1ncnc2c1ncn2[C@@H]1O[C@H](COP(=O)(O)OP(=O)(O)O)[C@@H](O)[C@H]1O is recorded as < 4% (mouse tissue mitochondria; concentration 12.5 to 25 µM, together with: glycerol 3-phosphate).
The inhibition of Cc1ncc(CNC(=O)c2cnc(CNS(=O)(=O)c3ccc(F)c(Cl)c3)cn2)s1 is reported as 34 ± 4% (mouse hippocampal CA1 neurons; NMDA receptor EPSC; 3 µM, holding +40 mV; reference: baseline).
CN1C(=CC=CC=CC2=[N+](CCCCCC(=O)NCCCC[C@H](NC(=O)[C@H](CCCCNC(=O)COCCOCCOCCNC(=O)[C@H](Cc3ccccc3)NC(=O)[C@H](CCCNC(=N)N)NC(=O)[C@@H]3CCCN3C(=O)[C@H](CC(N)=O)NC(=O)[C@@H]3CCCN3C(=O)[C@H](CO)NC(=O)[C@@H](N)CCCCN)NC(=O)COCCOCCOCCNC(=O)[C@H](CCC(=O)O)NC(=O)[C@H](CCCNC(=N)N)NC(=O)[C@@H]3CCCN3C(=O)[C@H](CCCCN)NC(=O)[C@H](Cc3c[nH]cn3)NC(=O)[C@H](CCCNC(=N)N)NC(=O)[C@@H](N)CCC(N)=O)C(N)=O)c3ccc4ccccc4c3C2(C)C)C(C)(C)c2c1ccc1ccccc21 has a specificity of 87% (Barrett's neoplasia detection, confocal microscopy; human esophageal biopsies; 0.5 µM, T/B ratio cutoff 5.9).
NCCCCN gave a Km of 51 ± 5.4 mM (speG (Escherichia coli, UniProt P0A951); substrate).
`CNSRQTDREDELI` has an inhibition of 0% (peptide, human polyclonal IgM RF MCC; concentration not given, 5 µg/mL mAb II-481 coated, together with: RF at 50% max binding concentration).
With CCCCCc1cc(O)c2c(c1)OC(C)(C)[C@@H]1CCC(C)=C[C@@H]21 the Emax was 40.5% (Cnr1 (Rattus norvegicus, UniProt P20272); G protein activation, agonist; Sprague-Dawley rat, male, cerebellar membranes; reference: basal binding).
With O=C(NNC(=O)c1ccc(CNS(=O)(=O)c2ccc(F)c(Cl)c2)cc1)c1ccccc1 the inhibition was 35 ± 6% (mouse hippocampal CA1 neurons; NMDA receptor EPSC; 3 µM, holding +40 mV; reference: baseline).
CCCCCC(O)C=CC=O (centres unmarked) has a Vmax of 22 fmol/µg/min (dopamine uptake; rat striatal vesicles; 60 µM, 15 min).

A few entries again:
COC(=O)C1=CCCN(C)C1 gave a Vmax of 783 nmol/min/mg protein (carboxylate metabolite formation, substrate; human liver microsomes; 15 min, 0.2 °C).
O=C(CN1CCN(S(=O)(=O)c2ccccc2F)CC1)Nc1ccccc1F gave a Hill coefficient of -0.6 (Neuronal acetylcholine receptor; alpha3/beta4 (Homo sapiens, UniProt P30926+P32297); inhibitor, calcium accumulation; HEK tsA201 cells).
